Measured values pooled from the literature.
A part holds a random share of what one study measured. Positions count from the first letter of the parent shown.

Set 1
Target: ABI1, truncated, D143A, DHFR fusion (Arabidopsis thaliana)
Technique: DHFR PCA, deep sequencing
Medium: yeast
Setting: methotrexate growth selection, single substitutions
Added: (+)-ABA 200 µM
Baseline: wild-type fitted maximum
Reading: higher = stronger binding
Parent: PYL1, truncated, DHFR fusion (Arabidopsis thaliana); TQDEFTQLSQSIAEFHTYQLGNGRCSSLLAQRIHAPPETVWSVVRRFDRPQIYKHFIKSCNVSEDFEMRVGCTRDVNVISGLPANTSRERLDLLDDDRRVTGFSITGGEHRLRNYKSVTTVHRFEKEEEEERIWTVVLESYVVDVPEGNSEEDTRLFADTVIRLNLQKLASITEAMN; partner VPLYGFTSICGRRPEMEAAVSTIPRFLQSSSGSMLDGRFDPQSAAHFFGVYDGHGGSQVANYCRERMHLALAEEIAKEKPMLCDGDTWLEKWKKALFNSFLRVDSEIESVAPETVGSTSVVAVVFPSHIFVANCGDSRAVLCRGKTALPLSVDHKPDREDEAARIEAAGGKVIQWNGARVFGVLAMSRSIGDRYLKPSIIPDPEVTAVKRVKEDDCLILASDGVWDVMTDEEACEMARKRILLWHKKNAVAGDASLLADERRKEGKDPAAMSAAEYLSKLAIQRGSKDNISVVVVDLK
Change | relative binding score [%]
N177E | 97.2
N61S | 106
T173Y | 51
T17E | 88.6
E125W | 98.9
L156F | 91.6
I12D | 35.1

Set 2
Target: Histone acetyltransferase KAT6A, winged helix 1, GST fusion (KAT6A, Homo sapiens, UniProt Q92794, residues 1-85)
Technique: protein binding microarray
Molecule type: double-stranded DNA, one strand shown
Medium: in vitro
Tested at: not given
Setting: 8-mer, flanks averaged, mean of 2 arrays, mostly near background
Baseline: not given
Reading: higher = stronger binding
Residues (chain): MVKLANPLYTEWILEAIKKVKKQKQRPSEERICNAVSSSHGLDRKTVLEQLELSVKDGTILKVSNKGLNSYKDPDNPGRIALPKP
Strand | E-score
CTCTCGGC | 0.167
AAACCTTA | -0.0691
GGCCTCTA | -0.0897
TCGAGGCA | -0.0873
AGGCCCAA | -0.0409
AACAGATC | -0.0889

Set 3
Target: RNA binding protein fox-1 homolog 2, RRM domain, GST-SBP tag (RBFOX2, Homo sapiens, UniProt O43251-10, residues 100-194)
Technique: RNA Bind-n-Seq
Molecule type: RNA
Medium: in vitro
Tested at: 365 nM
Setting: natural RNA segment, single round, ends assumed
Baseline: no-protein control
Reading: higher = stronger binding
Construct (chain): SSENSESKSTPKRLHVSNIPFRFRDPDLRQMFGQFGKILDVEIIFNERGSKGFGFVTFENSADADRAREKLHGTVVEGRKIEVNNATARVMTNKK
Strand | RBNS enrichment (R)
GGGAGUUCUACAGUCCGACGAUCCAGUUGUGGGUCACUGUCCCUUCCAGCUGCCCCAGACAGGAAGCAGAGUCACCACGCAGCAGUGUCCCUUCUUGGGUCUGAGUUCCUAUUAUAGGUAGGGGCCCCACCCUUGGAAUUCUCGGGUGCCAA | 0.324
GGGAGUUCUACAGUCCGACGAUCUAUCCACUAUGAUUAUAAACUGUGUCUCGACCUGUGUUAUUUACAUUAGCUGCUUAAAAAAGCAUUGAGUUAAUUUUUUUAAAUAUCAACUAAAAUAUCAUAGUUCUGUGUGGAAUUCUCGGGUGCCAA | 0.472
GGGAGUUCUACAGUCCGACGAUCCCCAGCAAUGAGGUCCCACCACACCAGGCCACACCCCCCCACUCUUCUGGAGGUGAAGGCCCAGGGCGUGGGGGAGCAGGGAUCAGGAGCACCUGUGGCUUGGUGGAGGCUGGAAUUCUCGGGUGCCAA | 1.07
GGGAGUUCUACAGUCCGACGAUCAGUACUCCCACAGGCCUGACUAACCGCCACAGAUCUCUCUUUCUUUCUCUCUGGUGACUUUUUGCUUUUGUGAUAUGGCAGCGGUGUGACAGUCCCAGGAGAGAAGUCAUUGGAAUUCUCGGGUGCCAA | 0.486
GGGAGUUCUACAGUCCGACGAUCAAAUGGAGGACCUGGUGCAGUACCUUUCCUCUGAGGCUUGGAUUCCCGUUCUUGGGUGUAAUGUUGCUCCCUGAUCCCAUAUCCCUGUGAAAAUGACUUAGGAAAAAACGUGGAAUUCUCGGGUGCCAA | 0.84

Mixed results
Molecule | target | assay | test system | setting | scale | quantity | value
PhoQ, residues 284 288 289 292 302 303 SMMNNA | PhoP, residues 12 14 15 18 19 FWNTL (Escherichia coli, UniProt P23836) | Sort-seq, item: YFP reporter | E. coli | PhoQ-PhoP variant library, added: 10 µM Mg2+ | baseline: high Mg2+ state, higher = stronger signaling | fold induction | 7.49
